# Experimental data gathered from unrelated publications.
# Numbered parts are unrelated; each lists some results of a single study. Values joined by “and” are separate records of one study, mostly repeats; a detail may differ. Substitutions count along the parent as printed.
# Chain of UniProt Q96D53 (whole entry, looked up): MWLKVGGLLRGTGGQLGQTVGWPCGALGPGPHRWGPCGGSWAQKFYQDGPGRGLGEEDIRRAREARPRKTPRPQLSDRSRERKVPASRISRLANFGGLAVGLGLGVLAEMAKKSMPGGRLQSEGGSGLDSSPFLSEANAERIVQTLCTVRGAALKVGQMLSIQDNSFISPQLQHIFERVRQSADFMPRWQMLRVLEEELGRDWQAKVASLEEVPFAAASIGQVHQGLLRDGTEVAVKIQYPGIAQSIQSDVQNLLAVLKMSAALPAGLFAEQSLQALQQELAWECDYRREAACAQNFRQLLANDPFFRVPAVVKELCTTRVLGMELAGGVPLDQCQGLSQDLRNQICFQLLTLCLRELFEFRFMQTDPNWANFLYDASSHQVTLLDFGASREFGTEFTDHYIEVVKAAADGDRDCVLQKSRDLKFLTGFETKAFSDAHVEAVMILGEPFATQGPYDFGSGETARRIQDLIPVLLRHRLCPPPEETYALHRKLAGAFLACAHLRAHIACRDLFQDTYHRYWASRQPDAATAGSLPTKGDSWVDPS
# Chain of UniProt Q9BYP7 (whole entry, looked up): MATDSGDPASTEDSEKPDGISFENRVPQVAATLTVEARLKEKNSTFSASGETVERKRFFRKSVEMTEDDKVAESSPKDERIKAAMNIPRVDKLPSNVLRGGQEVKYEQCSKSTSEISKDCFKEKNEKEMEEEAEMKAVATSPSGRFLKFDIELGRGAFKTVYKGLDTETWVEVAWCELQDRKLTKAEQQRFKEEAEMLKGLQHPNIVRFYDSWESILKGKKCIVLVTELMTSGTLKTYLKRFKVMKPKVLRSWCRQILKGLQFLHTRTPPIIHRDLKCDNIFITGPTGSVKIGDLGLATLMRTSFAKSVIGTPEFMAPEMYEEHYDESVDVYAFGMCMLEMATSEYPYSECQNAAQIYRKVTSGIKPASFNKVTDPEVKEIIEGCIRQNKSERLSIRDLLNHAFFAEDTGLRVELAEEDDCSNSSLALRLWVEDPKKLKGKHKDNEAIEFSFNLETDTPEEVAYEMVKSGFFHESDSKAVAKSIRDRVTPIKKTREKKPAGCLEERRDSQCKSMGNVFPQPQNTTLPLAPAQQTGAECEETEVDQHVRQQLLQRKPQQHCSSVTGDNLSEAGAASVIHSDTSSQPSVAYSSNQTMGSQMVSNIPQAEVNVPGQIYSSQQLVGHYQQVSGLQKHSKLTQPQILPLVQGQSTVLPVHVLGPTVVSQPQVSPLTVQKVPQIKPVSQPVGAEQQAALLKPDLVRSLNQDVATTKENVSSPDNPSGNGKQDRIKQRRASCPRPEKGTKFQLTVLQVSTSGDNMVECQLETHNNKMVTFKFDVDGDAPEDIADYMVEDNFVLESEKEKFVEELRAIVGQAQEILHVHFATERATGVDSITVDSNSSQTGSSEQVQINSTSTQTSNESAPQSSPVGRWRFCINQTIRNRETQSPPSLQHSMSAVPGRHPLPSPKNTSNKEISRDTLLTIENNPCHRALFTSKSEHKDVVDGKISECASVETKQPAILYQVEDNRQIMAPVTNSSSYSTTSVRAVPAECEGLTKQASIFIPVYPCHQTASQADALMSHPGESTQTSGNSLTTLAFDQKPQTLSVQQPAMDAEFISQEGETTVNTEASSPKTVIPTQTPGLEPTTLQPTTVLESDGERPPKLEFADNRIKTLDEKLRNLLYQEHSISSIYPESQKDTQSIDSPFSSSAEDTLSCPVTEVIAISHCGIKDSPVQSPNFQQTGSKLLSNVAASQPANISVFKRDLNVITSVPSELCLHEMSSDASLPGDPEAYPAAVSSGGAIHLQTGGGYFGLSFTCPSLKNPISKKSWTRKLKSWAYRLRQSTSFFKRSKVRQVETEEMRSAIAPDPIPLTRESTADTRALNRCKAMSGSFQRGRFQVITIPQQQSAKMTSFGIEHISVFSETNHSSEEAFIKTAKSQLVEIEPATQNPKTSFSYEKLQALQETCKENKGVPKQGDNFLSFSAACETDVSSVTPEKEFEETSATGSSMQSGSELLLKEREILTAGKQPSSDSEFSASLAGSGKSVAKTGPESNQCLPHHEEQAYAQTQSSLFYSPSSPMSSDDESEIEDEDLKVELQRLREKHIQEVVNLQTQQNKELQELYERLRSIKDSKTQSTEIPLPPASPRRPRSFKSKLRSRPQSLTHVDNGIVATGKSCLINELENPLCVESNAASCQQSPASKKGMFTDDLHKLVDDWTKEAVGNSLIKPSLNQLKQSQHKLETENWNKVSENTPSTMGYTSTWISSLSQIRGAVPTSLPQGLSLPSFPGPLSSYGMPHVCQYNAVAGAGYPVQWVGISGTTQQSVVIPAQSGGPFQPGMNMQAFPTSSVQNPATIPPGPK
# Chain of UniProt P35968 (whole entry, looked up): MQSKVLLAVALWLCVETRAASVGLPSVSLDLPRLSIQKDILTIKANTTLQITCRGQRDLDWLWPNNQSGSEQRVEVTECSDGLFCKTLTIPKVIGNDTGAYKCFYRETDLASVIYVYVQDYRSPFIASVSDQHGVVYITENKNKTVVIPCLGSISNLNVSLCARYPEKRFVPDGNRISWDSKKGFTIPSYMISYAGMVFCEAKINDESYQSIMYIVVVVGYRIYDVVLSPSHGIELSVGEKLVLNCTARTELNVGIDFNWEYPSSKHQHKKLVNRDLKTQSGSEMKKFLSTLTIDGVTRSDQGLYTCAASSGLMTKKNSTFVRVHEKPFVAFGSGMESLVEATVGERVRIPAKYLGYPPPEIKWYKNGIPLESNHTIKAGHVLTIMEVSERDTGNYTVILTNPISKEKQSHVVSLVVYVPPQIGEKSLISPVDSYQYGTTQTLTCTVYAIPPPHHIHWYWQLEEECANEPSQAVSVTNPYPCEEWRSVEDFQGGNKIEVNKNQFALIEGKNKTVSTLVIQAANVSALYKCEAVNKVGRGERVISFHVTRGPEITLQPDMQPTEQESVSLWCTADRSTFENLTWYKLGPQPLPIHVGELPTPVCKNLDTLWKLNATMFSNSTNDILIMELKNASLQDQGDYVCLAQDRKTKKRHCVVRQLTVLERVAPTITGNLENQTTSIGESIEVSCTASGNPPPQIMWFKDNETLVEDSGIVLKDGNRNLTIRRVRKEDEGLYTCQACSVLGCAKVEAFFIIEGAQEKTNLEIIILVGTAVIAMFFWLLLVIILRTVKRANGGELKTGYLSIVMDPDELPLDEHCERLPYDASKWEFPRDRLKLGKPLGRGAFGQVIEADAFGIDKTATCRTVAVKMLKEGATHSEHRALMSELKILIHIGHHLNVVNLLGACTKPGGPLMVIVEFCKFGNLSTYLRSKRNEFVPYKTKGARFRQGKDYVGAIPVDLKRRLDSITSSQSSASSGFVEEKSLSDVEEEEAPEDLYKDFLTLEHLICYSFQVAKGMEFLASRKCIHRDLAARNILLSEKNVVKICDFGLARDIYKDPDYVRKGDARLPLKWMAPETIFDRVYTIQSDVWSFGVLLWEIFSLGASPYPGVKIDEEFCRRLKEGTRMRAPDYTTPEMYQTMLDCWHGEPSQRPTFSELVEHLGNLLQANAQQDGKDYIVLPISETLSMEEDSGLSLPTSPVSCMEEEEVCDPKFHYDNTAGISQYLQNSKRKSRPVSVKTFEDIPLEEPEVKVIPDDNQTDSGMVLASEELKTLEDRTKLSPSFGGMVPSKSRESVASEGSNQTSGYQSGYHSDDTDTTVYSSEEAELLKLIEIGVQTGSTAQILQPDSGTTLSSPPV
# Chain of UniProt Q9BYT3 (whole entry, looked up): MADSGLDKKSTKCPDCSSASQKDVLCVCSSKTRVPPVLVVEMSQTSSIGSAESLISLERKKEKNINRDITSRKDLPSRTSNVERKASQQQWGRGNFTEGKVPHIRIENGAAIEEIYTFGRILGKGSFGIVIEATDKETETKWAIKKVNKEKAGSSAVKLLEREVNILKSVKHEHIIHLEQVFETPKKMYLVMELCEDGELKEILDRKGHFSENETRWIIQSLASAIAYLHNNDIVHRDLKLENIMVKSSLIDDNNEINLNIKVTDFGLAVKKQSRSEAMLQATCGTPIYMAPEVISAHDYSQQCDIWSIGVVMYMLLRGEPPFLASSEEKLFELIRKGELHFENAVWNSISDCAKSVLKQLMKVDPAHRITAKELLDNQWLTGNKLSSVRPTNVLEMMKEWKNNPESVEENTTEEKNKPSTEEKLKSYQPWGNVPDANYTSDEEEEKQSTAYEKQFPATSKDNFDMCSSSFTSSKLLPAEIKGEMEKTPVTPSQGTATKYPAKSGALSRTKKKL
# Chain of UniProt Q13164 (whole entry, looked up): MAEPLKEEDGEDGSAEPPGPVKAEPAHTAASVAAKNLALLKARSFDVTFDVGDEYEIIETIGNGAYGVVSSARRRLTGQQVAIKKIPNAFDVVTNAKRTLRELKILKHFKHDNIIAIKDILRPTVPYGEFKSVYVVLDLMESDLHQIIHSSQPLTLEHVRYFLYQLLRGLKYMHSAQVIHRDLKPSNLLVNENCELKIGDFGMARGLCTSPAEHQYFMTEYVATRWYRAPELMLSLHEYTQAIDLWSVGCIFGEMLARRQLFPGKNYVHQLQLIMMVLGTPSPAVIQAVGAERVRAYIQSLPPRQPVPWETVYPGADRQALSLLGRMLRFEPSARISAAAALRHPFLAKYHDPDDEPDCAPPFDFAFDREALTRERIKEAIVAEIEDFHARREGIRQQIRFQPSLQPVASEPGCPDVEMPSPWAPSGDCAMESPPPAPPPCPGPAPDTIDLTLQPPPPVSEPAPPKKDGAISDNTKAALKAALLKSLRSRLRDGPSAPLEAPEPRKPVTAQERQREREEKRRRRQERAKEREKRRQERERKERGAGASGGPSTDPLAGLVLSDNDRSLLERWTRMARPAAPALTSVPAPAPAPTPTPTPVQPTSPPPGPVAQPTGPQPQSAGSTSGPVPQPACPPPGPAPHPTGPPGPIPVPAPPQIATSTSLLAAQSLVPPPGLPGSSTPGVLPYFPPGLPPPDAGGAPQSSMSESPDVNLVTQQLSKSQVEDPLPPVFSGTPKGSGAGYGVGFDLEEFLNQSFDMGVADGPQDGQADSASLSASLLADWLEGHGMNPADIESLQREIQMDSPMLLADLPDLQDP

# Series 1
# SMILES: O=C1CCC(N2Cc3c(ccc4c3OCC43CCN(Cc4ccccc4)CC3)C2=O)C(=O)N1 (stereo not drawn)
# Medium: plasma
host,route,dose,time,plasma concentration
male ICR mice,intravenous,1 mg/kg,2 h,60.2 ng/mL
"ICR mouse, male",oral,3 mg/kg,1 h,464 ng/mL and 340 ng/mL
"Sprague Dawley rat, male",intravenous,1 mg/kg,8 h,15.4 ng/mL and 15.2 ng/mL
rat,intravenous,1 mg/kg,24 h,not detected
"Sprague Dawley rat, male",oral,3 mg/kg,0.25 h,40.1 ng/mL and 28.3 ng/mL
"ICR mouse, male",intravenous,1 mg/kg,0.5 h,195 ng/mL and 177 ng/mL

# Series 2
# Target: inorganic phosphate, free oxyanion
# Method: microfluidic competitive inhibition
# Medium: in vitro, cell-free expressed
# Tested at: not given
# Setting: derived from inhibition constants, unchanged parent 615000 nM
# Reading: lower = stronger binding
# Starting sequence: PafA, mature enzyme, eGFP fusion (Elizabethkingia meningoseptica, UniProt Q9KJX5); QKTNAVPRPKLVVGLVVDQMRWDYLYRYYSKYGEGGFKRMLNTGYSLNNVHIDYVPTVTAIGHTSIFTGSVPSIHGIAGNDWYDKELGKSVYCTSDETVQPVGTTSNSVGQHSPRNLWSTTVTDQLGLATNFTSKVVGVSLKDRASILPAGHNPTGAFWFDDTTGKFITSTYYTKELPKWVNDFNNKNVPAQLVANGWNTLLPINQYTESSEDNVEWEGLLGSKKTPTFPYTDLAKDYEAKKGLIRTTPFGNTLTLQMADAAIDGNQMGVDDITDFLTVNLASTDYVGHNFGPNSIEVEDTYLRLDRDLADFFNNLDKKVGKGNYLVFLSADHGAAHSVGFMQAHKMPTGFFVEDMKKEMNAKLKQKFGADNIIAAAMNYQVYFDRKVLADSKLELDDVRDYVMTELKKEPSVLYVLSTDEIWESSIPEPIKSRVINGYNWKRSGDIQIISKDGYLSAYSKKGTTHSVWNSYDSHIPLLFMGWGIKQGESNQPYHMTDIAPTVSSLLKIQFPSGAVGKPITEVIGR
Substitution,phosphate dissociation constant [µM]
L126V,664
L456V,791
S330G,765
K241G,632
V16A,515
K486G,592
S119V,591
R434G,525

# Series 3
# Structure (SMILES): Cn1cncc1[C@@](O)(COc1ccc(C#N)cc1-c1ccc(OC(F)(F)F)cc1)c1ccc(C#N)cc1
# Method: competition with immobilised ligand
# Tested at: 1 µM
target,read-out,remaining binding
"Tyrosine-protein kinase ABL2 (ABL2, Homo sapiens, UniProt P42684)",cell-free assay,100%
"Serine/threonine-protein kinase pim-3 (PIM3, Homo sapiens, UniProt Q86V86)",cell-free assay,100%
"Serine/threonine-protein kinase/endoribonuclease IRE1 (ERN1, Homo sapiens, UniProt O75460)",cell-free assay,95%
"Bone morphogenetic protein receptor type-2 (BMPR2, Homo sapiens, UniProt Q13873)",cell-free assay,100%
"STE20/SPS1-related proline-alanine-rich protein kinase (STK39, Homo sapiens, UniProt Q9UEW8)",cell-free assay,100%
"Tyrosine-protein kinase CSK (CSK, Homo sapiens, UniProt P41240)",cell-free assay,100%
"Mitogen-activated protein kinase kinase kinase 2 (MAP3K2, Homo sapiens, UniProt Q9Y2U5)",cell-free assay,100%
"Mitogen-activated protein kinase 7 (MAPK7, Homo sapiens, UniProt Q13164)",cell-free assay,93%
"Tyrosine-protein kinase TXK (TXK, Homo sapiens, UniProt P42681)",binding,85%
"Phosphatidylinositol 4,5-bisphosphate 3-kinase catalytic subunit alpha isoform (PIK3CA, Homo sapiens, UniProt P42336, C420R)",cell-free assay,90%
"Vascular endothelial growth factor receptor 2 (KDR, Homo sapiens, UniProt P35968)",cell-free assay,100%
"Serine/threonine-protein kinase WNK3 (WNK3, Homo sapiens, UniProt Q9BYP7)",cell-free assay,100%
"Serine/threonine-protein kinase TAO2 (TAOK2, Homo sapiens, UniProt Q9UL54)",cell-free assay,98%
"Atypical kinase COQ8B, mitochondrial (COQ8B, Homo sapiens, UniProt Q96D53)",cell-free assay,100%
"Serine/threonine-protein kinase 33 (STK33, Homo sapiens, UniProt Q9BYT3)",cell-free assay,69%

# Mixed results
SMILES,target,read-out,action,tested at,quantity,value
N#C[C@H](O[C@@H]1O[C@H](CO[C@@H]2O[C@H](CO)[C@@H](O)[C@H](O)[C@H]2O)[C@@H](O)[C@H](O)[C@H]1O)c1ccccc1,"Calcium/calmodulin-dependent protein kinase type II subunit alpha (CAMK2A, Homo sapiens, UniProt Q9UQM7)",enzyme activity,inhibitor,10 µM,inhibition,25%

# For quick reference, copied from above (series 2):
Substitution,phosphate dissociation constant [µM]
S119V,591
R434G,525
